Experimental data of several laboratories.
Each line is one published result; not all experiments were run side by side. ± marks the error that the study gave.
Fibroin-modulator-binding protein-1: Fibroin-modulator-binding protein-1 99-193 (Bombyx mori, UniProt Q5FBS0)
Rc3h1: Rc3h1 411-454 (Mus musculus, UniProt Q4VGL6)
UniProt Q4VGL6, sequence (whole entry, looked up): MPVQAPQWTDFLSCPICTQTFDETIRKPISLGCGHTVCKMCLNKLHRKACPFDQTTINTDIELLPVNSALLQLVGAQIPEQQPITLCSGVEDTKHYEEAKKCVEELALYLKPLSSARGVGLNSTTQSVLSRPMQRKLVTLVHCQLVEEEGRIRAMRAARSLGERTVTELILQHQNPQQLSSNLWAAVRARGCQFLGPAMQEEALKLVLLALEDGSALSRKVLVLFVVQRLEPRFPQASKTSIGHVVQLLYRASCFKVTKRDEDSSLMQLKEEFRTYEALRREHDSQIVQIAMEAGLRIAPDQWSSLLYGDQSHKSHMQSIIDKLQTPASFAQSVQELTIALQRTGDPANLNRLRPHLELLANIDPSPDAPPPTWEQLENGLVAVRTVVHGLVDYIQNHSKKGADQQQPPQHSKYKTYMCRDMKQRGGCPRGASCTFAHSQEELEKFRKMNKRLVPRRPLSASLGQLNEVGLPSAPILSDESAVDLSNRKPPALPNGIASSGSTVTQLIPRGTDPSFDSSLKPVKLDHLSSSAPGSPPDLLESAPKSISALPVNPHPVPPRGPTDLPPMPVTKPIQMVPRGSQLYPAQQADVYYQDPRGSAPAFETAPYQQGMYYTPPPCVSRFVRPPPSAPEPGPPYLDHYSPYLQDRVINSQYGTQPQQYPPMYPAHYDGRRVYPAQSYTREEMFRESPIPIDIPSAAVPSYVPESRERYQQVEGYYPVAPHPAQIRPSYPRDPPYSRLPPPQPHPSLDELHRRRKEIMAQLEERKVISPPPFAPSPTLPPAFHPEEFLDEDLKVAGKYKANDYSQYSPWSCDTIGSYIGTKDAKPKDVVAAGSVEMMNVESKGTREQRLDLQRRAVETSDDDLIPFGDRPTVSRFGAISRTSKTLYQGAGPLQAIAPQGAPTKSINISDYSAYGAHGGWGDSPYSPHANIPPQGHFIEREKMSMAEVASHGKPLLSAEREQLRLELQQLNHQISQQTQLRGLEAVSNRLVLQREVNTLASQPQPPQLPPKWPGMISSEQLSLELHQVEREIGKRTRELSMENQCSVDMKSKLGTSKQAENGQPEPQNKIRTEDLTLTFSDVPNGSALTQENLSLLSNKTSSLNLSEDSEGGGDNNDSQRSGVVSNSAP
T1: Yku70/Yku80 (Saccharomyces cerevisiae); chain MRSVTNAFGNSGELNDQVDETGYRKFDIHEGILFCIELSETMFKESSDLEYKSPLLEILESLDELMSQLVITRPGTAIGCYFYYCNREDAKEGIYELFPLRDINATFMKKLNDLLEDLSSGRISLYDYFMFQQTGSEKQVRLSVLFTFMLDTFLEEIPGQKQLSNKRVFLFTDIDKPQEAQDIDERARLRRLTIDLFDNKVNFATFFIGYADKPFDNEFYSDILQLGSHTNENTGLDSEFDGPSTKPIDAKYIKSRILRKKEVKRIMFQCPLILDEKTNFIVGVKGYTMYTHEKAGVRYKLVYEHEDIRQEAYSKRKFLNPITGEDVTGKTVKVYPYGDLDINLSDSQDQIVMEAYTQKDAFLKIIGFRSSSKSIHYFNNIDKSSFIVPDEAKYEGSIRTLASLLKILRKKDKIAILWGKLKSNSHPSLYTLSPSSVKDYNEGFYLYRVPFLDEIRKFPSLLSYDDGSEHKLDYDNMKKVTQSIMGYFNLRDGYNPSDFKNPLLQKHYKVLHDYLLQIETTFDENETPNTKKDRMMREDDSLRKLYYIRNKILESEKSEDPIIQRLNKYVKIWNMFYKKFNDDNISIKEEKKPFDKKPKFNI; chain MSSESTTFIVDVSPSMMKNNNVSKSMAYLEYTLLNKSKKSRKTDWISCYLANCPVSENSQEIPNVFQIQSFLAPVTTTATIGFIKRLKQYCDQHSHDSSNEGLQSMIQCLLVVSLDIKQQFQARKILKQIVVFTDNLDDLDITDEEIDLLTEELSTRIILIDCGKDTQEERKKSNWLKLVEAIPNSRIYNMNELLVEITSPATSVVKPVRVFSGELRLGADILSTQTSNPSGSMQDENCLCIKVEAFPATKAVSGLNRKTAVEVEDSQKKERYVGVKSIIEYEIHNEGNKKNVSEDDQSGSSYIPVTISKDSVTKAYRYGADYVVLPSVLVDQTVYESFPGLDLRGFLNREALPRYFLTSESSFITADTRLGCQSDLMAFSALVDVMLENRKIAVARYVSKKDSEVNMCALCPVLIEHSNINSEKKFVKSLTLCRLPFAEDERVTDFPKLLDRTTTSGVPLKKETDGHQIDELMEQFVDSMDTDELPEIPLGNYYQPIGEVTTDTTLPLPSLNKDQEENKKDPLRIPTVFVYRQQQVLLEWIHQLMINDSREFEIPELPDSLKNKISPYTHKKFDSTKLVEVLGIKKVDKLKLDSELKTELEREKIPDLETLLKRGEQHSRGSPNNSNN
T2: xseA/xseB 1-456;1-80 H238A (Escherichia coli); chain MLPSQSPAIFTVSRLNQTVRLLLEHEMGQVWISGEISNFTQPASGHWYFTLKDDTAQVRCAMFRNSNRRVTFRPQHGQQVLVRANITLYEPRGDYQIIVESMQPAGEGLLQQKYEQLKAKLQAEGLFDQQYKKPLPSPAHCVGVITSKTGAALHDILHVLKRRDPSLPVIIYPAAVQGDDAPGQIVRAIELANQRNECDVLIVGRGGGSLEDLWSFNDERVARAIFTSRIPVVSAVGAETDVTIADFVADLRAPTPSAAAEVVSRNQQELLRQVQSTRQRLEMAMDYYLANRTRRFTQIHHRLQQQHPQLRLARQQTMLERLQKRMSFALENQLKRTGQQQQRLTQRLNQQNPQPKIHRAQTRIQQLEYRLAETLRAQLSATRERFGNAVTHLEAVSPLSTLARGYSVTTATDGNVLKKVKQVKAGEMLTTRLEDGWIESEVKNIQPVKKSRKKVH; chain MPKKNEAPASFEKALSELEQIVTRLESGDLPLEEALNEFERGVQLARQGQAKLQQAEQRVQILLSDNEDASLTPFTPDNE
UniProt P13991, sequence (whole entry, looked up): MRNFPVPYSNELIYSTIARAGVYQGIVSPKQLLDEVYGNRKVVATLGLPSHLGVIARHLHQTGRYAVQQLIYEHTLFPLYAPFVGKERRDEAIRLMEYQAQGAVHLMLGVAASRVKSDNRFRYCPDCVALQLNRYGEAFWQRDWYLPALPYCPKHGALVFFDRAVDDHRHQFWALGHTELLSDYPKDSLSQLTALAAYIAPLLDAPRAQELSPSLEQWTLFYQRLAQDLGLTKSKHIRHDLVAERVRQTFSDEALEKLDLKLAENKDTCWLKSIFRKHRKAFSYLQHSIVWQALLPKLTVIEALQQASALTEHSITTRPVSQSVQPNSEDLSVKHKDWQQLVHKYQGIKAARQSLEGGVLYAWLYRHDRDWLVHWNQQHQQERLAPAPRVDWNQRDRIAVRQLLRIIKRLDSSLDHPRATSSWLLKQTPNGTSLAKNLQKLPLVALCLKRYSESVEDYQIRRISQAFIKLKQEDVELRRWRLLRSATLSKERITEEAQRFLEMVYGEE
UniProt P48431, sequence (whole entry, looked up): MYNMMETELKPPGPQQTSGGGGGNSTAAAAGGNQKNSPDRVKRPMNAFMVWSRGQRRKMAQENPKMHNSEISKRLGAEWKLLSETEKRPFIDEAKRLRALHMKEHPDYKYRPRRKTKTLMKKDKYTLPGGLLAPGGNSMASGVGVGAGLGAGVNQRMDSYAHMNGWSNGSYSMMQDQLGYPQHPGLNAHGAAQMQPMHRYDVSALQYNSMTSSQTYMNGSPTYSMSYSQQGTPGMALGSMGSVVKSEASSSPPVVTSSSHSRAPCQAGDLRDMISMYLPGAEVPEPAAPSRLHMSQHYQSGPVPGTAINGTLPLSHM
UniProt P0A7G6, sequence (whole entry, unmodified, looked up): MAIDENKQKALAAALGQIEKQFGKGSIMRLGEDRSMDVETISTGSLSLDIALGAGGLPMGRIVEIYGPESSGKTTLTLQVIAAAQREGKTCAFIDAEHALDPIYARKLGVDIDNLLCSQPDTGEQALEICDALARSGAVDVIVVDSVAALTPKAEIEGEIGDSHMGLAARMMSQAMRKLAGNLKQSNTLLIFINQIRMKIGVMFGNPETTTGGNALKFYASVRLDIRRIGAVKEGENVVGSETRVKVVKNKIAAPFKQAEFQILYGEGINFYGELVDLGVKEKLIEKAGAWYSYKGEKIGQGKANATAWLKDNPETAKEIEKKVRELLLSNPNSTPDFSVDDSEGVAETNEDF
UniProt P02788, sequence (whole entry, looked up): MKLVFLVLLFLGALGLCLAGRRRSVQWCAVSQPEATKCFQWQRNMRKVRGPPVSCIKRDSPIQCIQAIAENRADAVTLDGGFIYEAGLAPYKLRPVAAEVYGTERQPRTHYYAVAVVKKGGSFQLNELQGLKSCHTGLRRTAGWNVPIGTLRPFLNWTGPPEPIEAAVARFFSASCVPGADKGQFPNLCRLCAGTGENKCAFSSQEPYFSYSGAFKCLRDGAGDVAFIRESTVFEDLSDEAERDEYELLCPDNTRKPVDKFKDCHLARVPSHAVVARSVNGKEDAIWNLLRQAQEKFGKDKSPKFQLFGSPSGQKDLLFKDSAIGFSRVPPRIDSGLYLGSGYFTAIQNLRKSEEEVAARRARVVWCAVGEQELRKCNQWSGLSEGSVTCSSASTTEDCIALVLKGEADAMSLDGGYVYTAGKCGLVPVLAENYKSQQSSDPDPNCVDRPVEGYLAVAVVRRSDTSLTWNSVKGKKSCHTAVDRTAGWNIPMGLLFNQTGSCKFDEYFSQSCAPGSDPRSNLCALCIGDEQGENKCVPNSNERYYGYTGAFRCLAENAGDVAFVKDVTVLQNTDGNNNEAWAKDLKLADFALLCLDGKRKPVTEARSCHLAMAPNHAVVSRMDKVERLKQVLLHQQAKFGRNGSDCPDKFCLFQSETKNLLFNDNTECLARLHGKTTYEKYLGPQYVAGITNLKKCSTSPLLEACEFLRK
UniProt P16455, sequence (whole entry, looked up): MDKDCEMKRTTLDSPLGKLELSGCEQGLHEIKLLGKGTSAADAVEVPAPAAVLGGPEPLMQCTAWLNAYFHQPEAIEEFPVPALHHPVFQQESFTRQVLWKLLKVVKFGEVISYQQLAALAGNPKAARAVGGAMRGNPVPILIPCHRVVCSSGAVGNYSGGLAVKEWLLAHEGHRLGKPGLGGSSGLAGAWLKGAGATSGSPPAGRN
UniProt P50548, sequence (whole entry, looked up): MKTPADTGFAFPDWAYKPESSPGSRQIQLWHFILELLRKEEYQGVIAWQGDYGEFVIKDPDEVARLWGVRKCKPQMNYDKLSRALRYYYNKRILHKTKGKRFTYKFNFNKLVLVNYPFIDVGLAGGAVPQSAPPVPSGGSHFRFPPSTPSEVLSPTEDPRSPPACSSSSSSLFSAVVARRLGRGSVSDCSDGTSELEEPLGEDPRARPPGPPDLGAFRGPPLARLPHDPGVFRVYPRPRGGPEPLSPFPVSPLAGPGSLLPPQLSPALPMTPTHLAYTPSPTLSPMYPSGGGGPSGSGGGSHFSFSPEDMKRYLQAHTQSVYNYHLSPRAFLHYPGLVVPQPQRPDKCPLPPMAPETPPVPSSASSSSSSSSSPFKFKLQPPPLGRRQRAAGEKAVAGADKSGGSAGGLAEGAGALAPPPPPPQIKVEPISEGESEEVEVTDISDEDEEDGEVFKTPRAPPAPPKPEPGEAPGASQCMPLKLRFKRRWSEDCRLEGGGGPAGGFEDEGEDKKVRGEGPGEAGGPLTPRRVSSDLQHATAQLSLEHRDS
UniProt P32787, sequence (whole entry, looked up): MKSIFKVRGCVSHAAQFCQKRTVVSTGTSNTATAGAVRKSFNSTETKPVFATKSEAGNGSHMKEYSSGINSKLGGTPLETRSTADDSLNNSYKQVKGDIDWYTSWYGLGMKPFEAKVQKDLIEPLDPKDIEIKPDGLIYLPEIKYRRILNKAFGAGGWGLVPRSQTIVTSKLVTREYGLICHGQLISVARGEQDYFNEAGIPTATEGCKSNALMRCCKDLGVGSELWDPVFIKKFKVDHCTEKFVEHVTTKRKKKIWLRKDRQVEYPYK
UniProt P60842, sequence (whole entry, looked up): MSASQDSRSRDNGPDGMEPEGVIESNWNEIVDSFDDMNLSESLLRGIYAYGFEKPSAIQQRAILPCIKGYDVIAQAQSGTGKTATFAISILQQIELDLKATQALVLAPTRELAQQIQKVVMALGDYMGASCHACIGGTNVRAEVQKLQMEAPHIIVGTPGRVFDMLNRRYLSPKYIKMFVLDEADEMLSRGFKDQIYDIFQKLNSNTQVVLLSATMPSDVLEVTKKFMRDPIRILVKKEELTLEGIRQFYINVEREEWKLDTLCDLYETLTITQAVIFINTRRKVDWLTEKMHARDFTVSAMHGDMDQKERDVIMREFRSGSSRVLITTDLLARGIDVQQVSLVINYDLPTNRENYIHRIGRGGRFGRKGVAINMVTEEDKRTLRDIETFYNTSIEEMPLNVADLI
UniProt Q15717, sequence (whole entry, looked up): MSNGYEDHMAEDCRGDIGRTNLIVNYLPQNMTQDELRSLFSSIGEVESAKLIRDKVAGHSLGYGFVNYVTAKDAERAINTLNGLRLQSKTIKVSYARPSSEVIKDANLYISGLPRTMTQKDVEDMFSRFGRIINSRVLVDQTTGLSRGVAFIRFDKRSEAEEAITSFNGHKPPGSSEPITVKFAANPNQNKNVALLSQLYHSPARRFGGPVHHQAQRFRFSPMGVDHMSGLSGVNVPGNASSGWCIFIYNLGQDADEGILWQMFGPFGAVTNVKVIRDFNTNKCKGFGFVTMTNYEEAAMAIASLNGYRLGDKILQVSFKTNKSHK

GTGTGGTTAATATGGTGTGGTTAATATGGTGTGGTTAATATGGTGTGGTTAATATG (dsDNA) — binding (RNJ 604-911 W873A (Arabidopsis thaliana, UniProt Q84W56); EMSA; double-stranded DNA, one strand shown): no binding
AGCTAGCTAGCT (dsDNA) — Kd (Fibroin-modulator-binding protein-1; ITC; double-stranded DNA, one strand shown): 3.38 ± 0.426 µM
AAGGTGTGTGGGTGTGGTAAT (dsDNA) — binding (T1, Yku70/Yku80 (Saccharomyces cerevisiae); EMSA; double-stranded DNA, one strand shown; without Rap1): binds
ATTTTTA (ssDNA) — binding (ELAVL1 2-99 (Homo sapiens, UniProt Q15717); ITC; single-stranded DNA; pH 5.5, 25 °C): binds
CTGTGAGTTGATGATGATATCATGTAGGC (dsDNA) — binding (MADS-RIN-like protein 1-249 (Fragaria ananassa, UniProt Q84U54); EMSA; double-stranded DNA, one strand shown): binds
AATGTAGGCTGAGCCGCAGAGACCACCAAT (dsDNA) — binding (ERF-D2 full length assumed (Solanum lycopersicum, UniProt A0A3Q7JX06); EMSA; double-stranded DNA, one strand shown): no binding
AGTTGGCAAGTC (dsDNA) — binding (NFIB 14-176 R117A (Homo sapiens, UniProt O00712); BLI; double-stranded DNA, one strand shown; with: Zn2+ 1 mM): no binding
TTATTCGAATTTTTAAGCGACTCGAATTGTATAA (dsDNA) — binding (Transcription factor MYB33 isoform X1 1-556 (Gossypium hirsutum, UniProt A0A1U8PAG7); EMSA; double-stranded DNA, one strand shown): no binding
GACTCTTTGTTTGGC (dsDNA; blunt) — binding (SOX2 39-118 (Homo sapiens, UniProt P48431); NMR; double-stranded DNA, one strand shown): binds
CTCTAGGAAGACATAGAAGATC (dsDNA) — binding (SPL2 1-415 (Malus domestica, UniProt D9ZJC1); EMSA; double-stranded DNA, one strand shown): no binding
ACCAAGCGGGAAGCGGAGCCGCCGCCGCCGCCG (dsDNA; blunt) — binding (WT1 zinc finger domain 323-435 (Homo sapiens); EMSA; double-stranded DNA, one strand shown): no binding
TTACTCAACCGTAACCGATTTTGCCAGGTTACGCGG (dsDNA) — binding (tnsD full length assumed (Escherichia coli, UniProt P13991); EMSA; double-stranded DNA, one strand shown): binds
GCATATGGCAGCTTGAACAGTGAGCGCAACGCAATTTTGCAGCGA (dsDNA) — binding (lacI full length assumed V52A (Escherichia coli, UniProt P03023); BLI; double-stranded DNA, one strand shown): binds
GGTGGTGGTGGTGGTGGT (ssDNA) — binding (recA full length assumed F204A (Escherichia coli, UniProt P0A7G6); fluorescence anisotropy; single-stranded DNA; with: ATPγS): binds
AGCGTGTTTTTTTTTTTTTTTTTTTTTTTTTTTTTTTTTTTTTTTTTTTTTTTTTTTTTTTTTTTTTTTTTTTTAGCGTG (ssDNA) — binding (T2, xseA/xseB 1-456;1-80 H238A (Escherichia coli); competition fluorescence anisotropy; single-stranded DNA): binds
TTTTTTTTTTTTTTTTTTTTTTTTTTTTTTTTTTTTTTTTTTTTTTTTTTTTTTTTTTTTTTTTTTTTTT (ssDNA) — binding (RAD51 full length assumed Y112E (Saccharomyces cerevisiae, UniProt P25454); fluorescence anisotropy; single-stranded DNA; with: ATP): no binding
TATTTTAT (ssDNA) — binding (Rc3h1; NMR; single-stranded DNA): binds
ACCGGAAGTG (dsDNA) — binding (ERF 22-140 (Homo sapiens, UniProt P50548); X-ray crystallography; double-stranded DNA, one strand shown; Cys72 reduced): binds
GGTTAGGGTTAG (ssDNA; 5'-phosphate) — binding (POT1 1-299 R80A (Homo sapiens, UniProt Q9NUX5); EMSA; single-stranded DNA): binds
DNA 1 TTAAAACATGTTGAGCTACAGCACCAGATTCAGCAATTAAGCTCTAAGCCATCCGCAAAAATGACCTCTTATCAA / DNA 2 TTGATAAGAGGTCATTTTTGCGGATGGCTTAGAGCTTAATTGCTGAATCTGGTGCTGTAGCTCAACATGTTTTAAATATGCAA (dsDNA; 3' 8 nt overhang) — binding (MGM101 23-269 (Saccharomyces cerevisiae, UniProt P32787); native MS; double-stranded DNA): binds
DNA 1 AAGGTGTGTGGGTGTGGTAATTTTTTT / DNA 2 ATTACCACACCCACACACCTT (dsDNA; 3' 6 nt overhang) — binding (RAP1/Yku70/Yku80 (Saccharomyces cerevisiae); EMSA; double-stranded DNA): binds
AAAAAAAAAAAAAAAA (ssRNA) — binding (EIF4A1 1-406 (Homo sapiens, UniProt P60842); fluorescence polarization; RNA; with: ATP, silvestrol 10 µM): binds
GCATGCCTCGAGTCTAGAGGTACCAGATCTGATCCTCTAGAGTCGACC (dsDNA) — binding (MGMT full length assumed (Homo sapiens, UniProt P16455); sedimentation velocity AUC; double-stranded DNA, one strand shown; 500 nM): binds
TGCGATTCGTTGTATCCGTAACATTTCCACCGAGCGTTTTGTTTTTCTTCTGTTCCTCTA (dsDNA) — binding (LHY full length assumed (Arabidopsis thaliana, UniProt Q6R0H1); EMSA; double-stranded DNA, one strand shown): no binding
ATACTAACAATCAGAACCCGGATTAATCGAAAGCTT (dsDNA) — binding (tnsD 1-318 (Escherichia coli, UniProt P13991); EMSA; double-stranded DNA, one strand shown): binds
GCACGCACGCAC (dsDNA) — Kd (Fibroin-modulator-binding protein-1; ITC; double-stranded DNA, one strand shown): 7.74 ± 0.886 µM
TTTTTTTTTTCGTATGGCACGGGGTTGGTGTTGGGTTGG (ssDNA; 5'-phosphate; G-quadruplex) — binding (LTF 20-710 (Homo sapiens, UniProt P02788); electrolyte-gated transistor sensor; single-stranded DNA): no binding
GATCATGCAGGACAGTCGGATCGCAACCTGATTTACTGTGTCATATAGTACGTGATTCAG (ssDNA) — binding (gene 32 protein 1-301 (bacteriophage T4, UniProt P03695); EMSA; single-stranded DNA; no ATP, with: Mg2+ 10 mM): binds
UAUAU (ssRNA) — binding (Rc3h1; NMR; RNA): binds
CATGCTCCCAAAGCTTGAAGGAAAAGCTTAGGTATAGTTA (dsDNA) — binding (NAC domain-containing protein full length assumed (Musa acuminata, UniProt A0A804JLK1); EMSA; double-stranded DNA, one strand shown): binds
ACCAAGCGGGATGCGGTGCCGCCGCCGCCGCCG (dsDNA; blunt) — binding (WT1 zinc finger domain 323-435 (Homo sapiens); EMSA; double-stranded DNA, one strand shown): no binding
CACAATGCAACACACAATAATCACACAGCAACACAATTTTCATTC (dsDNA) — binding (gbp (Glycine max, UniProt Q8LKV1); EMSA; double-stranded DNA, one strand shown): no binding

For quick reference, copied from above:
ACCAAGCGGGAAGCGGAGCCGCCGCCGCCGCCG (dsDNA; blunt) — binding (WT1 zinc finger domain 323-435 (Homo sapiens); EMSA; double-stranded DNA, one strand shown): no binding
TTACTCAACCGTAACCGATTTTGCCAGGTTACGCGG (dsDNA) — binding (tnsD full length assumed (Escherichia coli, UniProt P13991); EMSA; double-stranded DNA, one strand shown): binds
GCATATGGCAGCTTGAACAGTGAGCGCAACGCAATTTTGCAGCGA (dsDNA) — binding (lacI full length assumed V52A (Escherichia coli, UniProt P03023); BLI; double-stranded DNA, one strand shown): binds
